Experimental data from different studies.
Each line is one published result; not all experiments were run side by side. Numbers after ± are the reported error.
USP13 ZnF-UBD domain: Ubiquitin carboxyl-terminal hydrolase 13, ZnF-UBD domain (USP13, Homo sapiens, UniProt Q92995)
UniProt Q92995, sequence (whole entry, looked up): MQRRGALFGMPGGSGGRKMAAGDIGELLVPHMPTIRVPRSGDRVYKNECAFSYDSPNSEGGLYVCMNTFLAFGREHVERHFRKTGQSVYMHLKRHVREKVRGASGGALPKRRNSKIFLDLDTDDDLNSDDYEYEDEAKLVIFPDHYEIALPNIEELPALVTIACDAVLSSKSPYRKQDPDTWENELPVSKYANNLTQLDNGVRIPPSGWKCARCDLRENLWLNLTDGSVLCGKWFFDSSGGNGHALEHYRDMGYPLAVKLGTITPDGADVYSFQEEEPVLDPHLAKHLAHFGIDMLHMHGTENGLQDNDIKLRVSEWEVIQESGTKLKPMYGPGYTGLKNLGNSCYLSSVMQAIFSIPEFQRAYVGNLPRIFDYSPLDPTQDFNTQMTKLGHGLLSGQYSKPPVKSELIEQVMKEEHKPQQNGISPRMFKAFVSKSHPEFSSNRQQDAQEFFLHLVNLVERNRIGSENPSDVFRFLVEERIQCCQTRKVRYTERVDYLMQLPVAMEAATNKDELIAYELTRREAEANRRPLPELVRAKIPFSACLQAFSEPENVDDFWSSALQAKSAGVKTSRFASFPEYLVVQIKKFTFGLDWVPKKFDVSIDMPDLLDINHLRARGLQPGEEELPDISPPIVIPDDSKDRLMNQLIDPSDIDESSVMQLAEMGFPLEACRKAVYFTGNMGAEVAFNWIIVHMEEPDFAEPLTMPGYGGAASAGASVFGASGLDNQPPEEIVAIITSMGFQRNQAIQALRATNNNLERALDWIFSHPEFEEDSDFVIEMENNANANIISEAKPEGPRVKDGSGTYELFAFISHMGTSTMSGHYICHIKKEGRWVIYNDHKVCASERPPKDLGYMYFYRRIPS

For `O=C(O)CCc1ccccc1OCc1ccccn1`, the Kd was 365 µM (USP13 ZnF-UBD domain).
`O=C(c1cc(Cc2n[nH]c(=O)c3ccccc23)ccc1F)N1CCN(C(=O)C2CC2)CC1` has an IC50 of 0.356 µM (HCC1569).
For `O=C(O)COCC(=O)O`, the IC50 was 5360 µM (hepatocytes, iPSC-derived, line L1; cell viability, RealTime-Glo MT; 72 h, differentiation day 23).
With `Cc1c(C(=O)O)ccc2c3n(nc12)[C@@H]1[C@H](C3)N(CC2CC2)[C@@]2(C(=O)Nc3cc(Cl)ccc32)[C@H]1c1cccc(Cl)c1F` the IC50 was 5.58 µM (4T1 (TP53 mutant); cell proliferation, alamarBlue; 72 h).
For `C=CC(=O)Nc1cccc(Oc2nc(Nc3ccc(N4CCN(C)CC4)cc3)nc3ccoc23)c1`, the IC50 was > 1 µM (TMD8 wild-type; calcium flux, FLIPR; 4 h preincubation, together with: anti-IgM).
With `O=C(Nc1ccc2c(c1)B(O)OC2)Nc1ccc(F)c(C(F)(F)F)c1` the IC50 was > 100 µM (HFF; cell growth).
`O=C(Nc1c(Cl)cncc1Cl)c1ccc(OC(F)F)c(OCC2CC2)c1` has an IC50 of 0.065 µM (PBMC; cytokine release, MSD, measured: IL-4; 24 h, together with: anti-CD3ε/anti-CD28).
`O=C(O)Cn1cnc2ccccc2c1=O` gave a Kd of 860 µM (USP13 ZnF-UBD domain).
`Cn1cc(-c2ccc(-c3cncc(Cl)c3N3CCC4(CCNC4=O)CC3)cc2)cn1`: “fold change in expression” 1.71 (COLO 205; microarray, measured: MMP2; concentration not given, 6 h, gene set MMP-2; reference: untreated cells).
The IC50 of `CC1(C)CCC(CN2CCN(c3ccc(C(=O)NS(=O)(=O)c4ccc(NCC5CCOCC5)c([N+](=O)[O-])c4)c(Oc4cnc5[nH]ccc5c4)c3)CC2)=C(c2ccc(Cl)cc2)C1` is reported as 0.000847 µM (CD19+ B cells from AML patients; cell viability, high-throughput flow cytometry).
`CCO[C@H](COc1ccc(C(F)(F)F)cc1)CSc1ccc(OCC(=O)O)c(C)c1` gave an IC50 of > 50 µM (LX-2 hepatic stellate cells; collagen production, ELISA, measured: Col1a1; 48 h, serum-free, together with: 2.5 ng/mL TGF-β1).
With `C=CC(=O)N1CCC([C@@H]2CCNc3c(C(N)=O)c(-c4ccc(Oc5ccccc5)cc4)nn32)CC1` the IC50 was 0.035 µM (TMD8 wild-type; calcium flux, FLIPR; 1 h preincubation, together with: anti-IgM).
With `CCOc1cc([C@@H](CS(C)(=O)=O)N2C(=O)c3cccc(NC(C)=O)c3C2=O)ccc1OC` the IC50 was 0.072 µM (PBMC; cytokine release, MSD, measured: IL-1β; 24 h, together with: anti-CD3ε/anti-CD28).
`NS(=O)(=O)c1cccc(Cc2c(-c3ccc(F)c(F)c3)[nH]n(-c3nc(C(=O)O)cs3)c2=O)c1` gave an IC50 of > 50 µM (HEK293T; lactate production; 1 h).
`C=CC(=O)N1CCC[C@@H](c2ccc(C(N)=O)c3[nH]ccc23)C1` has an IC50 of > 1 µM (TMD8 wild-type; calcium flux, FLIPR; 4 h preincubation, together with: anti-IgM).
`COc1ccc(F)cc1C(=O)NCc1ccc(-c2nn([C@@H](C)C(F)(F)F)c(N)c2C(N)=O)cc1` gave an IC50 of 0.0061 ± 0.0001 µM (Rec1; measured: sCD40L; 24 h).
`CSc1ccc(C(=O)/C=C/c2cc(C)c(OC(C)(C)C(=O)O)c(C)c2)cc1` gave an IC50 of 1.96 ± 0.991 µM (LX-2 hepatic stellate cells; collagen production, ELISA, measured: Col1a1; 48 h, serum-free, together with: 2.5 ng/mL TGF-β1).
`OCCCN1CC[C@@H]2C[C@H]1c1cc(-c3ccc(C(F)(F)F)cc3)ccc12` has an IC50 of 0.0059 µM (HEK293T; immunocytochemistry, measured: phospho-eIF2alpha; 2 h).
The IC50 of `CCO[C@@H](Cc1ccc(OCCn2c(C)ccc2-c2ccc(SC)cc2)cc1)C(=O)O` is reported as 12.1 ± 6.55 µM (LX-2 hepatic stellate cells; collagen production, ELISA, measured: Col1a1; 48 h, serum-free, together with: 2.5 ng/mL TGF-β1).
The IC50 of `C[C@H]1[C@H](OC(=O)CCC(=O)O)O[C@@H]2O[C@@]3(C)CC[C@H]4[C@H](C)CC[C@@H]1[C@@]24OO3` is reported as 4.05 µM (primary AML blasts 1; cell viability; human; 96 h).
The IC50 of `Cc1nc(Nc2ncc(C(=O)Nc3c(C)cccc3Cl)s2)cc(N2CCN(CCO)CC2)n1` is reported as 1.52 µM (Capan-2; cell viability, MTT; mutant KRAS primary).
With `Cc1cc(N2CCc3c(c(C)nn3CC34CCC(NC(=O)[C@@H]5COCCN5)(CC3)CC4)C2)c2cnn(C)c2n1` the IC50 was 0.0004 µM (human PBMC; qRT-PCR, measured: IFI27 mRNA; together with: ssRNA).
The IC50 of `O=C(CNC(=O)c1cccc2ccccc12)Nc1ccccc1Oc1ccc(O)cc1` is reported as 0.49 µM (SK-N-BE(2)-C; cell growth, inhibitor).
The IC50 of `CCCCN1C[C@H](O)[C@@H](O)[C@@H](O)[C@H]1CO` is reported as 8.1 µM (sample D patient fibroblasts; Gb3 level lowering, LC-MS/MS, measured: Gb3 d18:1/16:0; 216 h).
With `Cc1c(C)c2c(c(C)c1O)CCC(C)(COc1ccc(CC3SC(=O)NC3=O)cc1)O2` (stereo not drawn) the IC50 was 69 µM (hepatocytes, iPSC-derived, line W3; cell viability, RealTime-Glo MT; 24 h, differentiation day 23).
The IC50 of `Cc1cnc(Nc2ccc(OCCN3CCCC3)cc2)nc1Nc1cccc(S(=O)(=O)NC(C)(C)C)c1` is reported as 0.87 µM (HEL 92.1.7 JAK2 V617F; cell growth, CCK-8).
The IC50 of `N#CC[C@H](C1CCCC1)n1cc(-c2ncnc3[nH]ccc23)cn1` is reported as 0.024 µM (PBMC; cytokine release, MSD, measured: IL-4; 24 h, together with: anti-CD3ε/anti-CD28).
`Cc1nc2ccc(NC(=O)CCNC(=O)CCCc3ccc(CC(C(=O)O)C(=O)O)cc3)cc2s1` gave an IC50 of > 50 µM (HEK293T; lactate production; 1 h).
With `O=C(CNC(=O)c1cccc2ccccc12)Nc1ccccc1Oc1ccccc1` the IC50 was 0.325 µM (SK-N-BE(2)-C; cell growth, inhibitor).
For `NS(=O)(=O)c1ccc(Cc2cn(-c3nc(C(=O)O)cs3)nc2-c2cccc(-c3ccccc3)c2)cc1`, the IC50 was 10.3 µM (HEK293T; lactate production; 1 h).
The IC50 of `CCN(CCO)CCCC(C)Nc1ccnc2cc(Cl)ccc12` (stereo not drawn) is reported as 2.5 ± 1 µM (human PBMC; IFN-driven gene expression, inhibitor, qRT-PCR, measured: OASL mRNA; two donors, together with: ssRNA).
For `C[C@H]1CN(C2COC2)CCN1c1ccc(Nc2cc(-c3ccnc(N4CCn5c(cc6c5CC(C)(C)C6)C4=O)c3CO)cn(C)c2=O)nc1`, the IC50 was 0.015 µM (TMD8 wild-type; calcium flux, FLIPR; 1 h preincubation, together with: anti-IgM).
`CC(=O)[C@]1(O)Cc2c(O)c3c(c(O)c2[C@@H](O[C@H]2C[C@H](N)[C@H](O)[C@H](C)O2)C1)C(=O)c1ccccc1C3=O` gave an IC50 of 1.75 µM (primary human intestinal proliferative cells; barrier formation (TEER); 48 h).
For `CC#CC(=O)N1CCC[C@H]1c1nc(-c2ccc(C(=O)Nc3ccccn3)cc2)c2c(N)nccn12`, the IC50 was 0.022 µM (TMD8 wild-type; calcium flux, FLIPR; 2 h preincubation, together with: anti-IgM).
With `CC(=O)c1c(O)c(C)c(O)c2c1OC1=CC(=O)C(C(C)=O)C(=O)C12C` (single isomer, unassigned; (+)) the IC50 was 5 µM (hepatocytes, iPSC-derived, line L1; cell viability; 72 h).
For `N#Cc1ccc(Oc2ccc3c(c2)COB3O)cc1`, the IC50 was 0.34 µM (PBMC; cytokine release, MSD, measured: IL-2; 24 h, together with: anti-CD3ε/anti-CD28).

A few entries again:
`CCO[C@H](COc1ccc(C(F)(F)F)cc1)CSc1ccc(OCC(=O)O)c(C)c1` gave an IC50 of > 50 µM (LX-2 hepatic stellate cells; collagen production, ELISA, measured: Col1a1; 48 h, serum-free, together with: 2.5 ng/mL TGF-β1).
For `C=CC(=O)Nc1cccc(Oc2nc(Nc3ccc(N4CCN(C)CC4)cc3)nc3ccoc23)c1`, the IC50 was > 1 µM (TMD8 wild-type; calcium flux, FLIPR; 4 h preincubation, together with: anti-IgM).
With `Cc1c(C(=O)O)ccc2c3n(nc12)[C@@H]1[C@H](C3)N(CC2CC2)[C@@]2(C(=O)Nc3cc(Cl)ccc32)[C@H]1c1cccc(Cl)c1F` the IC50 was 5.58 µM (4T1 (TP53 mutant); cell proliferation, alamarBlue; 72 h).
With `O=C(CNC(=O)c1cccc2ccccc12)Nc1ccccc1Oc1ccccc1` the IC50 was 0.325 µM (SK-N-BE(2)-C; cell growth, inhibitor).
`CC(=O)[C@]1(O)Cc2c(O)c3c(c(O)c2[C@@H](O[C@H]2C[C@H](N)[C@H](O)[C@H](C)O2)C1)C(=O)c1ccccc1C3=O` gave an IC50 of 1.75 µM (primary human intestinal proliferative cells; barrier formation (TEER); 48 h).
